Assay results of several laboratories.
Parts stem from different laboratories: compare values within a part only. Positions count from the first letter of the parent shown.

Block 1
Target: Sal-like protein 4, full length isoform A (SALL4, Homo sapiens, UniProt Q9UJQ4, residues 1-1053)
Sequence of UniProt Q9UJQ4 (whole entry, looked up): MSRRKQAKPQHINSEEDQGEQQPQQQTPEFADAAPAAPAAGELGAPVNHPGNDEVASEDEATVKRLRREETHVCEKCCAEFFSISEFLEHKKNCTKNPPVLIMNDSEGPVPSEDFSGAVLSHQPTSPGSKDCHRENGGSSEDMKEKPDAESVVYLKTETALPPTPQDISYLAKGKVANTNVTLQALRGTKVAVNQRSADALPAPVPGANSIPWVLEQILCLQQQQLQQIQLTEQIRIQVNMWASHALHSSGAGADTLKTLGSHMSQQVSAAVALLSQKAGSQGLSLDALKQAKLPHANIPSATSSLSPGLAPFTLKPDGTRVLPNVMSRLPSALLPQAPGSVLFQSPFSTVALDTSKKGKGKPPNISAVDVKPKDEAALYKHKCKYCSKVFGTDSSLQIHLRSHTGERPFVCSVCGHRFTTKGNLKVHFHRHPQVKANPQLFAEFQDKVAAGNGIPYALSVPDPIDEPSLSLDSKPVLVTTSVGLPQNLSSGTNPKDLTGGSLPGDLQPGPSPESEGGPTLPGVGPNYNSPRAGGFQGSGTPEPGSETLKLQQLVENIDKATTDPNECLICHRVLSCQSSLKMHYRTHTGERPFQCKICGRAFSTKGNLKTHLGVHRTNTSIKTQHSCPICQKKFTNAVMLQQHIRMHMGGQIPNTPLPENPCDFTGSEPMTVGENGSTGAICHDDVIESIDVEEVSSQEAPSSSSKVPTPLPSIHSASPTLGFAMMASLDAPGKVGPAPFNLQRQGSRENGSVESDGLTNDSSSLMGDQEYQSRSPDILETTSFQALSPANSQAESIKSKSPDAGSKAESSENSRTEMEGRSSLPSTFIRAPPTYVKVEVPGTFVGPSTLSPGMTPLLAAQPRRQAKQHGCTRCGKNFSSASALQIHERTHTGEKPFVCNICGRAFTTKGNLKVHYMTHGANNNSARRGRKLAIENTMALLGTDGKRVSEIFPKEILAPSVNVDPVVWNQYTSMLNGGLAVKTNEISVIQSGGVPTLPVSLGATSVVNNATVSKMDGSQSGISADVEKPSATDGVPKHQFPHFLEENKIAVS
Technique: universal PBM
Molecule type: double-stranded DNA, one strand shown
Medium: in vitro
Tested at: 600 nM
Notes: 8-mer, flanks averaged, mean of replicates
Reading: higher = stronger binding
| Strand | E-score |
| --- | --- |
| AGCTAGGA | -0.106 |
| TAAGACCA | 0.0881 |
| AACGGGCA | -0.0443 |
| ATGAGGTG | -0.117 |
| AGAAAACG | -0.0444 |
| CGCCTCTC | -0.347 |
| AGACGGAC | -0.241 |
| AGCAGAGC | -0.211 |
| CAGCATTA | 0.177 |
| CTTACTGC | 0.0168 |
| CGGGATGA | -0.148 |
| GCTCTACA | -0.0268 |
| CCCGCTAC | -0.194 |
| ATCCGGAC | -0.284 |
| GGACAGCC | -0.327 |
| CTGAACCC | -0.316 |
| GACAGGTC | -0.197 |
| ATCCAGTC | -0.0525 |

Block 2
Target: Interferon regulatory factor 7, full length, phosphomimetic (IRF7, Homo sapiens, UniProt Q92985, residues 1-503, S101K/S471D/S472D/S475D/S476D/S477D/S483D/S484D/S487D)
Technique: protein-binding microarray
Molecule type: double-stranded DNA, one strand shown
Medium: in vitro
Tested at: 250 nM
Notes: 60-bp whole probe
Together with: salmon DNA 0.4 mg/ml
Relative to: random background probes
Reading: higher = stronger binding
All sequences stand within: GCCTAGCAC … GTCTTGATTCGCTTGACGCTGCTG
Target sequence (chain): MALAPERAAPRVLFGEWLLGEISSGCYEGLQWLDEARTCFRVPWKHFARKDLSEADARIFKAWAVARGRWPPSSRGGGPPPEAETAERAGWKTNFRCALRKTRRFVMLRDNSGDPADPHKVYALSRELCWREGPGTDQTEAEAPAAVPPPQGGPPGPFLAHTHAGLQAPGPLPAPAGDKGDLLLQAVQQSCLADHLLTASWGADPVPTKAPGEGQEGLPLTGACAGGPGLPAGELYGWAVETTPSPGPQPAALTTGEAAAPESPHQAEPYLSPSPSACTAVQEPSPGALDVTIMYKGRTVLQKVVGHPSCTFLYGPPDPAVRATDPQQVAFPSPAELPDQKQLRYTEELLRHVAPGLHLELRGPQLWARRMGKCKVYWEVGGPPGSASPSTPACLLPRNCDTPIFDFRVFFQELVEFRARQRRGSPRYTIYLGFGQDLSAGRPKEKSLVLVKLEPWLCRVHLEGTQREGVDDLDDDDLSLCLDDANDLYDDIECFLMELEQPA
| Strand | log fluorescence [z-score] |
| --- | --- |
| GATGGACTGGGACTGGGGACGTGCTAG | -0.361 |
| CTCCCTTTCTCTCTGTGACAGTGCTAG | 1.29 |
| TTAGGTTTTGACACTGGGTTAGTGCTA | -0.285 |
| GACGGCCTGGACTTTCGGGACGTGCTA | -1.04 |
| TTAGGTATCGGGCCTGGGTTAGTGCTA | 0.135 |
| GACGATATCAGACTGGAGGCGTGCTAG | -0.396 |
| CCTGGCTTCATGTTGCTCTCCGTGCTA | -0.655 |
| GTAGGACTGCTTCTCCTTTAGTGCTAG | 0.341 |
| TTTGTTTCCATTTTCTGAATGTGCTAG | 6.16 |
| GACGGTTTCGGGTATCGGGACGTGCTA | 7.28 |
| ATGTTCACTGTGTACCGTCTGTGCTAG | 0.135 |
| TTCGGTTTCGACACTGGGTTAGTGCTA | 4.37 |

Block 3
Target: Ras GTPase-activating protein-binding protein 1, full length (G3BP1, Homo sapiens, UniProt Q13283)
Sequence of UniProt Q13283 (whole entry, looked up): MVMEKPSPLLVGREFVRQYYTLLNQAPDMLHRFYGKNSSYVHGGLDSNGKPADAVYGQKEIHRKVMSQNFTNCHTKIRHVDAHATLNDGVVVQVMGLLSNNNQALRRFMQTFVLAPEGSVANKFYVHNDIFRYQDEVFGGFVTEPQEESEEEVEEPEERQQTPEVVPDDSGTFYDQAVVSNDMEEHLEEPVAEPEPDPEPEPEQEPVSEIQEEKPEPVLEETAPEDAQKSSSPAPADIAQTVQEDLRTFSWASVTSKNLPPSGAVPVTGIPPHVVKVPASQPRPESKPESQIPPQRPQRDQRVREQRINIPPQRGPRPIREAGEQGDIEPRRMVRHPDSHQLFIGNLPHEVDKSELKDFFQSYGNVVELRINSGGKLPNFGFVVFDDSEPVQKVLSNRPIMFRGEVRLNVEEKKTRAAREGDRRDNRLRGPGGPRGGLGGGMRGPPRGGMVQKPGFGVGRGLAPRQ
Technique: RNA Bind-n-Seq
Molecule type: RNA
Medium: in vitro
Tested at: 200 nM
Notes: whole 134-nt RNA, ends assumed
Together with: 150 mM LiCl
Relative to: input library
Reading: higher = stronger binding
Library: 7-deaza-guanosine replaces G
All sequences stand within: GGGAGUUCUACAGUCCGACGAUC … UGGAAUUCUCGGGUGUCAAGG
| Strand | log2 enrichment |
| --- | --- |
| CUCAAGUCCUGUGCUACACAUCGUAUGUACCGAAUCGGGAGGGAAAGGGUGGGAAAGUAUUAUGUUACGCCGUUCGGAUCUGCACUUCCA | -0.562 |
| UGGGAGCUGGAUUUUGUUUAUUUUUUUAGCUCAUUUCCAGGGGUGGGAAUUUUUUUUUAAUAUGUGUCAUGAAUAAAGUUGUUUUUGAAA | -0.782 |
| UUCUCUCUCUCCCUUUGCAGCCGCUGUACAACCAGCCCUCCGACACCCGGCAGUAUCAUGAGAACAUCAAAAUGUGAGUGCUCGCGGGCA | 1.41 |
| CCUGUGCUACACAUCGUAUGUACCGAAUCGGGGAAAGGGGUUUUUGGGGUUUUUUUGGGGAAAGUAUUAUGUUACGCCGUUCGGAUCUGC | 0.997 |
| CACAGACAACACGCACCCACACAGACACAGAGGGAAAAGGUUGGGAUGGGGACAGGGUGCACAGCAGGGCGGGGUAGGACCCCAGCCCCU | -1.52 |
| UUUCACAGAGAAGCAAAUGCUGGCACAAGGAUACCCUGCUUACACGACAUCGUGCGCCUGGCUGGGGUACUCAGAUGACACGUUGAAGCA | -0.0429 |

Block 4
Target: RNA binding protein fox-1 homolog 2, RRM domain, GST-SBP tag (RBFOX2, Homo sapiens, UniProt O43251-10, residues 100-194)
Technique: RNA Bind-n-Seq
Molecule type: RNA
Medium: in vitro
Tested at: 365 nM
Notes: natural RNA segment, single round, ends assumed
Relative to: no-protein control
Reading: higher = stronger binding
All sequences stand within: GGGAGUUCUACAGUCCGACGAUC … UGGAAUUCUCGGGUGCCAA
Construct (chain): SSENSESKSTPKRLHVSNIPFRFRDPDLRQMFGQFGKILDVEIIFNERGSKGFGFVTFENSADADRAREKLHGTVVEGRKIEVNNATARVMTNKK
| Strand | RBNS enrichment (R) |
| --- | --- |
| CAGAAGUUUGGGAACUCAAAAGUGACAUCAGGAAAGUUAGGAAAAAGUCCACUGUCAACAUUAUCAGCUCUCCUCAUUUCGAGCUAUCUGCUAGUCACAGCUGAAUAGCU | 0.472 |
| AGUGCUUUGAAAAGUUUAGAUUAUACAUGUGUGACAGAUGCGGCAUAUUUGCUCUAUUAACACAGAGGCUUACUAUAGAAAUCUAAAGUCAAUGCUGUACAUCCAUCCAG | 0.451 |
| CAAUUACAGCGUGUGUGCAUGGAUGUGUGUGGGGGGCGUGCCUCUCAGAAACGCGGCCAGAAGACAAGCAGGGAAGUGAAAGGUCCCAGGCACACACCCUGCCCAUUGCA | 2.26 |
| GGUCCUUCAAAUGUUCCUUUGGCCAAAAGCUGAAGGGAGUUACUGAGAAAAUAGUUAACAAUUACUGUCAGGUGUCAUCACUGUUCAAAAGGUAAGCACAUUUAGAAUUU | 0.305 |
| UCAUACGCGAAGGCCAUAUGGCCAUCGUGUCAGCAGAGAGAGUCUCUGUACACAGCCCCGUGAACCCUGAGGAGUGGAGUCAUACACGAAGGGCGUGUGGCCAUCGUGUC | 0.257 |
| UUUUAUAUAUAUAUAUAAAAGAACAAAAUGAAAAAAAACACACACACACAAGAGUUUACAGAUUAGUUUAAAUUGAUAAUGAAAUGUGAAGUUUGUCCUAGUUUACAUCU | 0.69 |
| GCCACCUCUGCCCCCCAGCACCUCAAACUUGCAUGGCUGGGCUGUGGCCUCUGCGGCCAGGAAGCCUGACACUAGGCACCCCCCAGGCGAGAGCUAGUGGGGUGCAGAGG | 1.7 |
| CCCAUGAGUGCAACGACCAAGGUGAAGGACAGCCAGACAGGAAAGGUGACAAAAGCCACCCUGAGUGAUACUAGGCUGCCUGAACCUUUGGGUGGGAGUGGAAGUCCCUA | 0.352 |
| AUGGUGUUUUUAAAAGGCCAAGUGUUGCAAAAGUUUGCACGUGCAACCGUAUAUUAAUCGCCAGUGUUUAAAACUGGUUUAUCAGAAUUUAUAUUUUUGUCUCUCCUGCC | 1.43 |
| UGAAGUUGGCUUACAUUUCUACAGUGUUAGGGGCGUAGGAGAAUUGGGGCCAACAUCCCAUCAGAAGAUUCGUGAGUCAGUGUAGUUUAGUGUCAAAGCAGCUUGUGUUG | 2.12 |
| AUACCUAAGCAAACCCAGUGUCAGGAUGGUAAUUCUUAUUCUUUCGUUCAGUUAAGUUUUUCCCUUCAUCUGGGCACUGAAGGGAUAUGUGAAACAAUGUUAACAUUUUU | 0.625 |
| AAAUUGGUUUGUCAUUUACCUCCAUGUGACUCCUUGCCCCAUAUAAAUGUCAGCAUAUGUAGCAAGUUUUCUAAGAAUGUAACUUAAUUUGAAGCUCCUGAAAUUUUGAG | 1.32 |

Block 5
Target: CCNA2, cyclin fold, Cln2 fusion (human)
Technique: yeast growth competition, sequencing
Medium: yeast
Notes: strong parent motif
Relative to: not given
Reading: higher = stronger binding
Starting sequence: SCAPER docking peptide (human); SNARRSLNFGGST; partner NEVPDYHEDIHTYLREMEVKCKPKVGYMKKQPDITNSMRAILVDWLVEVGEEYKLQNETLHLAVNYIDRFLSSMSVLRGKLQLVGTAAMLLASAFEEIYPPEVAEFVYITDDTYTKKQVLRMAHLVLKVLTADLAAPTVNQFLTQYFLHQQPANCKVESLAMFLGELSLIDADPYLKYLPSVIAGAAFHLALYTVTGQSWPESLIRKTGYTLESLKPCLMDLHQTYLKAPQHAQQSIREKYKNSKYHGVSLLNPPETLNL
| Change | normalised enrichment score |
| --- | --- |
| S12P | 7.26 |
| F9N | -0.3 |
| R5N | 0.298 |
| G10F | 6.04 |
| A3H | 1.68 |
| S12Y | 6.26 |
| G11H | 5.97 |
| R5G | 0.197 |
| A3I | 4.66 |

Block 6
Target: Histone acetyltransferase KAT6A, winged helix 2, GST fusion (KAT6A, Homo sapiens, UniProt Q92794, residues 85-181)
Technique: protein binding microarray
Molecule type: double-stranded DNA, one strand shown
Medium: in vitro
Tested at: not given
Notes: 8-mer, flanks averaged, mean of 2 arrays, mostly near background
Relative to: not given
Reading: higher = stronger binding
Target sequence (chain): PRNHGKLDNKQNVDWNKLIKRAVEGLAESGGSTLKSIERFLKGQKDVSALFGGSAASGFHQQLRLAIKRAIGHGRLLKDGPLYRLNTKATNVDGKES
| Strand | E-score |
| --- | --- |
| CCGAGTAG | 0.129 |
| CAGACTAC | -0.0246 |
| AATGTCAG | -0.175 |
| CCGCGCCG | 0.244 |
| CGTCGTTA | -0.149 |
| GACCTCGC | 0.077 |
| ATCTGCAG | 0.0343 |
| AAGGGAGG | 0.0225 |
| ACTCACTG | 0.0482 |
| AGAGATTC | -0.102 |
| ACAACTCC | -0.0579 |
| AAAAATGT | -0.0527 |

Block 7
Target: PABPC1L2, full length, GST fusion (mouse, UniProt A0ABA7IW68)
Technique: RNAcompete
Molecule type: RNA
Medium: in vitro
Tested at: 20 nM
Notes: 7-mer, probes averaged, single round
Relative to: mean of 7-mers
Reading: higher = stronger binding
Construct (chain): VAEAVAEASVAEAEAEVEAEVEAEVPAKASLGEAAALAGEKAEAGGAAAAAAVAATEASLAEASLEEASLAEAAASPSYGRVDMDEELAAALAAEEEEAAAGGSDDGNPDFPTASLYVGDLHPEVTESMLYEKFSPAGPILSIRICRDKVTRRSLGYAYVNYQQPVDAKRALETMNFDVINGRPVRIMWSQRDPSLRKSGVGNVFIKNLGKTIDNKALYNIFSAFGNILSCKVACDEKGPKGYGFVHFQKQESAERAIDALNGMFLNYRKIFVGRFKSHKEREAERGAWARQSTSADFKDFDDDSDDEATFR
| Strand | 7-mer Z-score |
| --- | --- |
| AAUGUCC | 0.00254 |
| CCUAAAC | 0.189 |
| ACUUAGU | -0.2 |
| AUUGCAU | -0.258 |
| GAAACAC | 1.16 |
| GUCAUAU | -0.287 |
| GGUUUCU | -0.322 |
| AUGUUAC | -0.345 |
| AGUGGGA | 0.35 |
| CUUUACG | -0.199 |
| AAAUAAA | 1.56 |
| CACGAUA | 0.037 |
| CAAACCU | -0.0699 |
| ACAGUGC | -0.0772 |

A few entries again (block 6):
| Strand | E-score |
| --- | --- |
| GACCTCGC | 0.077 |
| AGAGATTC | -0.102 |
| AAGGGAGG | 0.0225 |
| ATCTGCAG | 0.0343 |
